Experimental data gathered from unrelated publications.
Every numbered part comes from another study and shows a few of its results, in no order. Positions count from the first letter of the parent shown.

Sample 1 — method: RNA Bind-n-Seq; molecule type: RNA; matrix: in vitro; tested at: 365 nM; relative to: no-protein control; direction: higher = stronger binding
Target: RNA binding protein fox-1 homolog 2, RRM domain, GST-SBP tag (RBFOX2, Homo sapiens, UniProt O43251-10, residues 100-194)
Setting: natural RNA segment, single round, ends assumed
Constant ends, left off below: GGGAGUUCUACAGUCCGACGAUC … UGGAAUUCUCGGGUGCCAA
Construct (chain): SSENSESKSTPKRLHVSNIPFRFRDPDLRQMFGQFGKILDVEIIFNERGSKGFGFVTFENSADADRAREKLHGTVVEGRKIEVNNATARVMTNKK
Under “RBNS enrichment (R)”, `AGAAAGAUUGGAAGCAGCUGCUGCCGCUACCGCCAACCAAAUCUUGCCAAUCCUGUCCCUGAAGCAGGGGGAGGCACAGAUUGUCCGUGGGAGUGAGUCAGUGUCUGGGA` is recorded as 0.242.
`CUCUUGAGCAAUGGAGUCACGUGUCUGCCCUGUGUAUUGCAGUUUGUCUUGACACAAGCUGUUUUUACACCAGUGUCAUCCCUUUCUUGUAGAAUAUACUAAUAAUCUGU` — result for “RBNS enrichment (R)”: 0.85.
`AUGGACGACGAAGAAGACUUCAACAAUUCACCUGCCCUGGGGAACAACAGCCCGUGGAACAGUAAACCUCCCGCCACGCAAGAGACCAAAUCAGAAAACGCCCCACCCCA` — result for “RBNS enrichment (R)”: 0.879.
`GGUAAAGGGGAAAAAAAGGUUUAAGAAAAGGAAAUUUGGAAAUUGCCUUGCAGAUAUUUCGGUACCGCUGAGUUUUCUUUCUUUUCCCAAGUGGGAAGAAGGCACACCUA`: “RBNS enrichment (R)” 0.637.
Under “RBNS enrichment (R)”, `AUCUCCUGCCUCUGUCACCUCAGUGCAGGGAAACUAUGGCCCCUGUGGUCUUGCUGUCUCUCCCACUGUGCCCUGGCCUGGCUUGUGGCUUCUUCUUUGCCUGUUCCAAA` is recorded as 0.665.
Under “RBNS enrichment (R)”, `UCCACCGUGGUGUUUCUGCAGGGCCCAGAGCUAAGAACAAACAAAGUUAUAAGAACGUACACAGUGAAAGGAGUACAAGAGCAGUGUAAAGAAAUAGUUUUCUUAGAUAU` is recorded as 0.345.
For `CUGAACAUUAGUUUGUAGUGUAACUAUUAGUAAAAAUAGAGAAACACAGCAUACUGUUCAUUAAUAGUAUUUUAAAAAAAUUGUUUUUCAAAUGUCACCAAUAAAAGUUU`, “RBNS enrichment (R)” read 1.11.
For `GUUUCUAGUACACGAUAUGACGGGACCAAGUACAAGCUGGUGGUGGACAGAGCUGGGUGCCACAGUUUUCCACCAAGAGCAGCCUCUUUUCUUCAUGGAGUUCUCAGAAC`, “RBNS enrichment (R)” read 0.274.
Under “RBNS enrichment (R)”, `AGUAAUACUAAUUCACAGAGUAUUGUAAAUGGUGGAUGACAAAAGAAAAUCUGCUCUGUGGAAAGAAAGAACUGUCUCUACCAGGGUCAAGAGCAUGAACGCAUCAAUAG` is recorded as 11.2.
`GCAUACUGUGUAAAUAUGGACCUUUUCAGAUUAAAACGUUAAUGGAAAUGCUUUUAACUCAAACAGCAACAUCUUAGCUAUUUGUUAGUUCUCUUUUGUUGUCUUAUCAA` — result for “RBNS enrichment (R)”: 0.522.
Under “RBNS enrichment (R)”, `ACAACUUCAAAUGCUAACCCGAUGACCCCAGAAAACCGUGUGAGAUUCGUACCGAAGAACCUUGUGGAAUCCCUUUGCUUAGGCCCAACCUGGUCGAUAGCUCGAGAAAG` is recorded as 1.08.
For `AUAGUAUGCAUUGUUAUACAUACUGUGUACCUAAUUAUGUAUAGCAGUGUAGUCUCAAUUAUAUCUGAAAGUAAUUGUGACUAACAAGUAUGCUUUGCCUUAUUUCCACA`, “RBNS enrichment (R)” read 0.306.

Sample 2 — target: CREB3L2, bZIP domain (human); method: DHFR protein complementation; matrix: yeast; relative to: wild-type JUN-FOS pair; direction: higher = stronger binding
Setting: single substitutions, most at no-binding floor
Parent: JUN, bZIP domain (human); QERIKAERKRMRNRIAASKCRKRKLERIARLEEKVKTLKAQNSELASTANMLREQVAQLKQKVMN; partner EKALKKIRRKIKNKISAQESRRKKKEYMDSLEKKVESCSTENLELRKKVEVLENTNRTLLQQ
For `A49D`, the binding fitness was -1.48 natural log.
`V56Q` gave a binding fitness of -1.49 natural log.
`M51E` has a binding fitness of -1.47 natural log.
`A29G` has a binding fitness of -1.38 natural log.
`M51C` gave a binding fitness of -1.52 natural log.
With `E33P` the binding fitness was -1.55 natural log.
The binding fitness of `V35F` is reported as -1.51 natural log.
With `E33C` the binding fitness was -1.48 natural log.
`E33F` gave a binding fitness of -1.51 natural log.
`A46E` has a binding fitness of -1.44 natural log.
With `S43Y` the binding fitness was -1.31 natural log.
With `Q55K` the binding fitness was -1.55 natural log.
With `E44G` the binding fitness was -1.51 natural log.
The binding fitness of `T37N` is reported as -1.39 natural log.
`L38A` has a binding fitness of -1.53 natural log.
The binding fitness of `A29R` is reported as -1.48 natural log.
`K34P` gave a binding fitness of -1.48 natural log.
The binding fitness of `K34M` is reported as -1.32 natural log.
With `V56S` the binding fitness was -1.52 natural log.
With `K34V` the binding fitness was -1.51 natural log.

Sample 3 — target: CCNA2, cyclin fold, Cln2 fusion (human); method: yeast growth competition, sequencing; matrix: yeast; setting: strong parent motif; relative to: not given; direction: higher = stronger binding
Parent: E2F2 docking peptide (human); LPAKRKLDLEGIG
Under “normalised enrichment score”, `I12A` is recorded as 3.52.
For `R5A`, “normalised enrichment score” read 1.37.
For `L7A`, “normalised enrichment score” read -0.015.
`R5A L7A` — result for “normalised enrichment score”: 0.263.
Under “normalised enrichment score”, `P2A` is recorded as 3.42.
`R5K`: “normalised enrichment score” 1.68.
`L9F` — result for “normalised enrichment score”: 5.7.
For `K4A`, “normalised enrichment score” read 4.1.
`L9A` — result for “normalised enrichment score”: 0.676.

Sample 4 — method: protein binding microarray; molecule type: double-stranded DNA, one strand shown; matrix: in vitro; tested at: not given; relative to: not given; direction: higher = stronger binding
Target: Histone acetyltransferase KAT6A, winged helix 1, GST fusion (KAT6A, Homo sapiens, UniProt Q92794, residues 1-85)
Setting: 8-mer, flanks averaged, mean of 2 arrays, mostly near background
Target sequence (chain): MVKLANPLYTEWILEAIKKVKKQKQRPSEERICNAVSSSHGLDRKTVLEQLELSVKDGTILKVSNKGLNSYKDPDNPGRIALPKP
For `CTTAGGGA`, the E-score was -0.224.
The E-score of `CAAGAACG` is reported as -0.0205.
`AGAACGAA` has an E-score of -0.176.
`CATGGGTA` has an E-score of -0.0359.
The E-score of `ATACTCGA` is reported as 0.0267.
For `ACGAAAAT`, the E-score was -0.181.
`AATGTCGC` has an E-score of 0.0545.
For `TGTCCCAA`, the E-score was -0.127.
`CACTAACC` has an E-score of 0.0189.
The E-score of `CTGACTGA` is reported as -0.142.
The E-score of `ATCGTACA` is reported as -0.0928.
For `GGATTATA`, the E-score was -0.0167.
`ATAGCTCG` has an E-score of 0.0478.
`GAGATCAC` has an E-score of -0.0819.
`AAACCCGC` has an E-score of 0.274.
`AGTGGACC` has an E-score of -0.103.
`GTTCACCA` gave an E-score of 0.00271.
With `ACAAGACT` the E-score was -0.208.
`AAGATGCG` gave an E-score of 0.0115.
For `GGACGCGA`, the E-score was 0.115.
The E-score of `ACAGACGT` is reported as -0.00783.
The E-score of `CATATAAG` is reported as -0.287.
`AAAGGAGG` gave an E-score of -0.174.
With `AGAGGCGA` the E-score was -0.0793.
The E-score of `AGCGCAGG` is reported as 0.268.

Sample 5 — method: DHFR PCA, deep sequencing; matrix: yeast; together with: (+)-ABA 0 µM; relative to: wild-type fitted maximum; direction: higher = stronger binding
Target: ABI1, truncated, D143A, DHFR fusion (Arabidopsis thaliana)
Setting: methotrexate growth selection, single substitutions
Parent: PYL1, truncated, DHFR fusion (Arabidopsis thaliana); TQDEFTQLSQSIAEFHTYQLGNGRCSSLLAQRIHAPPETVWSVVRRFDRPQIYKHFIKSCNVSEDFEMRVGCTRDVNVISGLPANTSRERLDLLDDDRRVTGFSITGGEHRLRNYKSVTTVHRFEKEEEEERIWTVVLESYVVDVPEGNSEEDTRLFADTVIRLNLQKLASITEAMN; partner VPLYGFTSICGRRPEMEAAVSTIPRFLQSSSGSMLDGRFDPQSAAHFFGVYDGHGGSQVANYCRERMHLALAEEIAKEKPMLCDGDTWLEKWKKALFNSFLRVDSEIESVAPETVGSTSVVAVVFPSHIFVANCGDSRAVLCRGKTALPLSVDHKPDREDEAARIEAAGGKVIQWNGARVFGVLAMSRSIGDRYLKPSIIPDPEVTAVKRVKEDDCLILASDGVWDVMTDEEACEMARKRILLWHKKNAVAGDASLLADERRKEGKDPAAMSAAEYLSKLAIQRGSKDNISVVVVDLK
`H55G` — result for “relative binding score”: 3.23%.
Under “relative binding score”, `N177V` is recorded as 46.5%.
For `N114P`, “relative binding score” read 3.24%.
For `L164N`, “relative binding score” read -5.28%.
Under “relative binding score”, `L169A` is recorded as -0.296%.
For `N77E`, “relative binding score” read 59%.
`D153F` — result for “relative binding score”: -9.19%.
Under “relative binding score”, `N165C` is recorded as 2.95%.
For `L28C`, “relative binding score” read 8.51%.
`V121W`: “relative binding score” -2.13%.
For `D75S`, “relative binding score” read 17.5%.
Under “relative binding score”, `E14Q` is recorded as 16%.
`F124H`: “relative binding score” 7.44%.
`F157P` — result for “relative binding score”: 1.99%.
For `A175G`, “relative binding score” read 27.1%.
`S42E` — result for “relative binding score”: 32.9%.
`T119P`: “relative binding score” -5.07%.
`E139M` — result for “relative binding score”: 5.3%.
For `R45M`, “relative binding score” read 3.15%.
Under “relative binding score”, `K116F` is recorded as -3.27%.
`N177D`: “relative binding score” 45.2%.
For `R74P`, “relative binding score” read 1.72%.
`S26D`: “relative binding score” 0.619%.
Under “relative binding score”, `C72H` is recorded as 1.24%.
Under “relative binding score”, `S171T` is recorded as 35.4%.

Single results of other studies — method: cross-linking MS
For `CDH2 (Homo sapiens, UniProt P19022)`, interaction screen read “cross-linked” (CTNNB1 (Homo sapiens, UniProt P35222); hits only).
Under cross-linked residues, `CLTB (Homo sapiens, UniProt P09497)` is recorded as “K204 to E1187” (CLTC (Homo sapiens, UniProt Q00610); cell fractions; together with: DMTMM).
Under interaction screen, `HNRNPR (Homo sapiens, UniProt O43390)` is recorded as “cross-linked” (HNRNPA1 (Homo sapiens, UniProt P09651); hits only).
`SNRPD3 (Homo sapiens, UniProt P62318)`: cross-linked residues “E59 to E345” (SF3B2 (Homo sapiens, UniProt Q13435); cell fractions; together with: DHSO).
